Results gathered from unrelated publications.
Protocols differ between the studies behind these lines.
Effect on: tubulin polymerisation
Action: inhibitor

SMILES	method	time	IC50 [µM]
N#Cc1c(-c2ccc(Cl)c(Cl)c2)c(-c2ccc(Cl)c(Cl)c2)n[nH]c1=O		20 min	6.2
CCOC(=O)c1cc(CCc2ccc(OC)cc2)sc1N	absorbance	20 min	16
COc1ccc2c(C(=O)c3cc(C(F)(F)F)cc(C(F)(F)F)c3)c(-c3ccc(OC)c(O)c3)[nH]c2c1	absorbance		< 5
COc1ccc(OC)c(CCc2cc(C#N)c(N)s2)c1	absorbance	20 min	0.74
COc1cc(-c2ccc(C(=O)N/N=C/c3ccncc3)c(C)n2)cc(OC)c1OC			0.0432
CC(C)(C)c1ccc(NC(=O)c2cc(-c3c[nH]c4ccccc34)n[nH]2)cc1	absorbance	20 min	> 20
O=C(/C=C/C(=O)c1ccc(F)cc1)Nc1ccccc1	absorbance		< 5
COC(=O)c1cc(CCc2cc(OC)ccc2OC)ccc1O	absorbance	20 min	2
COc1cc(-c2ccc(-c3nnc(SC)o3)c(C)n2)cc(OC)c1OC			0.0641
CCn1c2ccccc2c2cc(C(O)c3cccc4ncccc34)ccc21 (stereo not shown)			3.2
N#Cc1c(-c2ccc(Cl)c(Cl)c2)c(-c2ccc(Cl)c(Cl)c2)nn(CC(=O)O)c1=O		20 min	4.2
CCOC(=O)c1cc(CCc2cc(OC)ccc2OC)sc1N	absorbance	20 min	3.1
CCCCCCSc1nnc(-c2ccc(-c3cc(OC)c(OC)c(OC)c3)nc2C)o1			0.0483
COc1ccc2c(NC(=O)CBr)c(C(=O)c3cc(OC)c(OC)c(OC)c3)oc2c1			2.3
COc1cc(-c2ccc(C(=O)N/N=C/c3cc(C)ccc3C)c(C)n2)cc(OC)c1OC			0.0204
COc1cc(NC(=O)c2cc(-c3c[nH]c4ccccc34)n[nH]2)cc(OC)c1OC	absorbance	20 min	> 20
N#Cc1c(-c2ccccc2)c(-c2ccccc2)nn(Cc2nn[nH]n2)c1=O		20 min	3
COc1ccc2c(NC(=O)CCl)c(C(=O)c3cc(OC)c(OC)c(OC)c3)oc2c1			2
CCSc1nnc(-c2ccc(-c3cc(OC)c(OC)c(OC)c3)nc2C)o1			0.0319

A few entries again:
SMILES	method	time	IC50 [µM]
CCOC(=O)c1cc(CCc2cc(OC)ccc2OC)sc1N	absorbance	20 min	3.1
CCCCCCSc1nnc(-c2ccc(-c3cc(OC)c(OC)c(OC)c3)nc2C)o1			0.0483
